Results pooled from the literature.
Compare with care: the assays were run in different laboratories. ± gives the spread as reported.

SMILES | assay | system | conditions | scale | retention time
C[C@@H]1NC(=O)[C@@H](Cc2ccc(O)cc2)NC(=O)[C@@H]2CSCC(=O)NCCCC[C@H](NC(=O)CSC[C@H](C(=O)N[C@@H](CCCCNC(=O)C[C@@H]3O[C@@H](C)[C@@H](O)[C@@H](O)[C@@H]3O)C(N)=O)NC1=O)C(=O)N1CCC[C@H]1C(=O)N[C@H](C)C(=O)N2 | RP-UHPLC C18 |  | 7.5 min gradient |  | 2.39 min
N=C(N)NCCC[C@H](NC(=O)[C@H](Cc1c[nH]c2ccccc12)NC(=O)[C@H](CCC(N)=O)NC(=O)[C@H](Cc1c[nH]c2ccccc12)NC(=O)[C@H](CCCNC(=N)N)NC(=O)[C@H](Cc1c[nH]c2ccccc12)NC(=O)[C@H](CCC(N)=O)NC(=O)[C@H](Cc1c[nH]c2ccccc12)NC(=O)[C@@H](N)CCCNC(=N)N)C(N)=O | RP-HPLC C18 |  | hydrophobicity measure |  | 6.4 min
CC(C)C[C@@H]1NC(=O)[C@H](CCCCN)NC(=O)[C@H](C(C)C)NC(=O)[C@@H]2CCCN2C(=O)[C@@H](Cc2ccc(O)cc2)NC(=O)[C@H](CC(C)C)NC(=O)[C@H](CCCCN)NC(=O)[C@H](C(C)C)NC(=O)[C@H](CCCCN)NC(=O)[C@H](CC(C)C)NC(=O)[C@@H]2CCCN2C(=O)[C@@H](Cc2ccc(O)cc2)NC(=O)[C@H](C(C)C)NC1=O | RP-HPLC C8 |  | 70 °C, water/acetonitrile TFA gradient |  | 28.7 min
C[C@H](N)C(=O)N[C@@H](Cc1c[nH]c2ccccc12)C(=O)N[C@@H](CCC(N)=O)C(=O)N[C@@H](Cc1c[nH]c2ccccc12)C(=O)N[C@@H](CCCNC(=N)N)C(=O)N[C@@H](Cc1c[nH]c2ccccc12)C(=O)N[C@@H](CCC(N)=O)C(=O)N[C@@H](Cc1c[nH]c2ccccc12)C(=O)N[C@@H](CCCNC(=N)N)C(N)=O | RP-HPLC C18 |  | hydrophobicity measure |  | 6.6 min
CCCCCCCCCCCCCC(=O)N[C@@H](CCCCN)C(=O)N[C@@H](CCCCN)C(=O)N[C@@H](CCCCN)C(=O)N[C@@H](CCCCN)C(=O)N[C@@H](CCCCN)C(N)=O | RP-HPLC C18 |  |  |  | 12.5 min
Cc1c(C)c(C)[c-](C)c1C.O=[N+]([O-])c1c[c-]c(-c2ccccn2)cc1.[Cl-].[Ir+3] | RP-HPLC | C18 column, water/acetonitrile | with: 50 mM NaCl | longer = more hydrophobic | 18.8 ± 0.2 min
CC(C)C[C@@H]1NC(=O)[C@H](CCCCN)NC(=O)[C@H](C(C)C)NC(=O)[C@@H]2CCCN2C(=O)[C@@H](Cc2ccc(O)cc2)NC(=O)[C@H](CC(C)C)NC(=O)[C@H](CCCCN)NC(=O)[C@H](C(C)C)NC(=O)[C@H](CCCCN)NC(=O)[C@@H]2CCCN2C(=O)[C@@H](Cc2ccc(O)cc2)NC(=O)[C@H](CCCCN)NC1=O | RP-HPLC C8 |  | 70 °C, water/acetonitrile TFA gradient |  | 22.9 min
Cc1c(C)c(C)[c-](C)c1C.Cc1ccc[c-]c1-c1ccccn1.[Cl-].[Ir+3] | RP-HPLC | C18 column, water/acetonitrile | with: 50 mM NaCl | longer = more hydrophobic | 20.4 ± 0.2 min
CCCCCCCCCCCCCCCCCCCC(=O)N[C@@H](CCCCN)C(=O)N[C@@H](CCCCN)C(=O)N[C@@H](CCCCN)C(=O)N[C@@H](CCCCN)C(=O)N[C@@H](CCCCN)C(N)=O | RP-HPLC C18 |  |  |  | 17.3 min
N=C(N)NCCC[C@@H](N)C(=O)N[C@@H](Cc1c[nH]c2ccccc12)C(=O)N[C@@H](CCC(N)=O)C(=O)N[C@@H](Cc1c[nH]c2ccccc12)C(=O)N[C@@H](CCCNC(=N)N)C(=O)N[C@@H](Cc1c[nH]c2ccccc12)C(=O)N[C@@H](CCC(N)=O)C(=O)N[C@@H](Cc1c[nH]c2ccccc12)C(=O)N[C@@H](CCCNC(=N)N)C(N)=O | RP-HPLC, C18 column |  | water/acetonitrile gradient with TFA |  | 6.4 min
CCCCCCCCCCCCCCCC(=O)N[C@@H](CCCCN)C(=O)N[C@@H](CCCCN)C(=O)N[C@@H](CCCCN)C(=O)N[C@@H](CCCCN)C(=O)N[C@@H](CCCCN)C(N)=O | RP-HPLC C18 |  |  |  | 14.3 min
CC(=O)N[C@@H](Cc1c[nH]c2ccccc12)C(=O)N[C@@H](CCCCN)C(=O)N[C@@H](Cc1ccccc1)C(=O)N[C@@H](CCC(=O)O)C(=O)N[C@@H](Cc1c[nH]c2ccccc12)C(=O)N[C@@H](CCCCN)C(=O)N[C@@H](Cc1ccccc1)C(=O)N[C@@H](CCC(=O)O)C(N)=O | reverse-phase HPLC C18 |  |  |  | 12.7 min
CC[C@@H](C)[C@@H](NC(=O)[C@@H](C)NC(=O)[C@@H](CCCCN)NC(=O)[C@@H](CC(C)C)NC(=O)[C@@H](CC(C)C)NC(=O)[C@H](NC(=O)[C@@H](CCCCN)NC(=O)[C@@H](CC(C)C)NC(=O)[C@@H](C)NC(=O)[C@@H](CCCCN)NC(=O)[C@@H](CCCCN)NC(=O)[C@@H](CCCCN)NC(=O)[C@@H](C)NC(=O)[C@@H](CCCCN)NC(=O)[C@@H](CO)NC(=O)[C@@H](Cc1ccccc1)NC(=O)[C@H](NC(=O)[C@@H](CCCCN)NC(=O)[C@@H](CC(C)C)NC(=O)[C@@H](Cc1ccccc1)NC(=O)[C@@H](CO)NC(=O)[C@@H](CCCCN)NC(=O)[C@@H](Cc1c[nH]c2ccccc12)NC(=O)[C@@H](CCCCN)NC(C)=O)[C@H](C)O)[C@H](C)O)C(=O)N[C@H](CO)C(=O)N[C@H](CCCCN)C(N)=O | RP-HPLC C8 |  | pH 2, hydrophobicity measure |  | 90.7 min
CC(C)C[C@@H]1NC(=O)[C@H](CCCCN)NC(=O)[C@H](C(C)C)NC(=O)[C@H](CCCCN)NC(=O)[C@H](CC(C)C)NC(=O)[C@@H]2CCCN2C(=O)[C@@H](Cc2ccc(O)cc2)NC(=O)[C@H](C(C)C)NC(=O)[C@H](CCCCN)NC(=O)[C@H](CCCCN)NC(=O)[C@H](C(C)C)NC(=O)[C@@H]2CCCN2C(=O)[C@@H](Cc2ccc(O)cc2)NC1=O | RP-HPLC C8 |  | 70 °C, water/acetonitrile TFA gradient |  | 26.1 min
CCCCCCCCCCCCCCCC(=O)N[C@H](C(=O)N[C@@H](CCCCN)C(=O)N[C@H](C(=O)N[C@@H](CCCCN)C(=O)N[C@H](C(=O)N[C@@H](CCCCN)C(=O)N[C@H](C(=O)N[C@@H](CCCCN)C(N)=O)C(C)C)C(C)C)C(C)C)C(C)C | RP-HPLC C18 |  |  |  | 16.8 min
CC(C)C[C@@H]1NC(=O)[C@H](CCCCN)NC(=O)[C@H](C(C)C)NC(=O)[C@@H]2CCCN2C(=O)[C@@H](Cc2ccc(O)cc2)NC(=O)[C@H](CC(C)C)NC(=O)[C@H](CCCCN)NC(=O)[C@H](C(C)C)NC(=O)[C@H](CCCCN)NC(=O)[C@@H]2CCCN2C(=O)[C@@H](Cc2ccc(O)cc2)NC1=O | RP-HPLC C8 |  | 70 °C, water/acetonitrile TFA gradient |  | 25.7 min
CC[C@@H](C)[C@@H](NC(=O)[C@@H](C)NC(=O)[C@@H](CCCCN)NC(=O)[C@@H](CC(C)C)NC(=O)[C@@H](C)NC(=O)[C@H](NC(=O)[C@@H](CCCCN)NC(=O)[C@@H](CC(C)C)NC(=O)[C@H](NC(=O)[C@@H](CCCCN)NC(=O)[C@@H](CCCCN)NC(=O)[C@@H](CCCCN)NC(=O)[C@@H](C)NC(=O)[C@@H](CCCCN)NC(=O)[C@@H](CO)NC(=O)[C@@H](Cc1ccccc1)NC(=O)[C@H](NC(=O)[C@@H](CCCCN)NC(=O)[C@@H](CC(C)C)NC(=O)[C@@H](Cc1ccccc1)NC(=O)[C@@H](CO)NC(=O)[C@@H](CCCCN)NC(=O)[C@@H](Cc1c[nH]c2ccccc12)NC(=O)[C@@H](CCCCN)NC(C)=O)[C@H](C)O)C(C)C)[C@H](C)O)C(=O)N[C@H](CO)C(=O)N[C@H](CCCCN)C(N)=O | RP-HPLC C8 |  | pH 2, hydrophobicity measure |  | 85.4 min

Excerpt of the above:
SMILES | assay | system | conditions | scale | retention time
N=C(N)NCCC[C@@H](N)C(=O)N[C@@H](Cc1c[nH]c2ccccc12)C(=O)N[C@@H](CCC(N)=O)C(=O)N[C@@H](Cc1c[nH]c2ccccc12)C(=O)N[C@@H](CCCNC(=N)N)C(=O)N[C@@H](Cc1c[nH]c2ccccc12)C(=O)N[C@@H](CCC(N)=O)C(=O)N[C@@H](Cc1c[nH]c2ccccc12)C(=O)N[C@@H](CCCNC(=N)N)C(N)=O | RP-HPLC, C18 column |  | water/acetonitrile gradient with TFA |  | 6.4 min
